# Measurements of several laboratories.
# Each line is one published result; not all experiments were run side by side. Several values in a cell are separate wells, animals, samples, runs or records. ± gives the spread as reported.
Compound,tested on,assay,system,conditions,scale,measurement,result
Cn1cc(-c2ccc(-c3cncc(Cl)c3N3CCC4(CCNC4=O)CC3)cc2)cn1,COLO 205,"gene expression, microarray, item: SLPI mRNA",,"concentration not given, 2 h",reference: untreated cells,log2 fold change,4.64
O=C(O)c1cc(O)c2c(c1)C(=O)c1cccc(O[C@@H]3O[C@H](CO)[C@@H](O)[C@H](O)[C@H]3O)c1C2=O,HK-2 co-cultured with HepaRG,MTT,,"133.33 µM, 48 h",reference: untreated control,cell viability,47.5 ± 2.72%
N#Cc1cccc(Nc2nc3cc(C(=O)O)ccc3c3cncnc23)c1,DYRK and HIPK kinases,"enzyme activity, inhibitor, eight-kinase enzymatic panel",,"1 µM, percent of control below 10",,number of kinases inhibited,3
COc1cccc(Nc2nc(NCC3CCCO3)c3ccccc3n2)c1.Cl (stereo not shown),Renilla luciferase reporter mRNA,"in vitro translation, inhibitor",Trypanosoma cruzi translation extract,20 µM,,inhibition,55.3%
C[n+]1cccc2cc(C=NNC(=O)c3ccc4ccc5ccc(C(=O)NN=Cc6ccc7c(ccc[n+]7C)c6)nc5c4n3)ccc21.[I-].[I-],MYC parallel G4 DNA,FRET melting,,"1 µM, DNA 0.2 µM, added: duplex DNA competitor 10 µM",,ΔTm,15.3 ± 1 °C
COc1c(O[C@@H]2O[C@H](CO)[C@@H](O)[C@H](O)[C@H]2O)c(C)cc2c1C(=O)c1c(O)cccc1C2=O,HK-2 co-cultured with HepaRG,MTT,,"133.33 µM, 48 h",reference: untreated control,cell viability,59.9 ± 1.33%
CCNC(=O)/C=C/c1cccc(Br)c1,endogenous leucine transporters hamster,"inhibitor, L-[14C]leucine uptake",CHO-BC cells,"100 µM, sodium-free",,L-leucine uptake,38.1 nmol/6 min/mg protein and 39.2 nmol/6 min/mg protein and 36.7 nmol/6 min/mg protein
O=C(NN=Cc1ccc(C[n+]2ccccc2)cc1)c1ccc2ccc3ccc(C(=O)NN=Cc4ccc(C[n+]5ccccc5)cc4)nc3c2n1.[Br-].[Br-],myc22 MYC G4-DNA parallel,FRET melting,,"1 µM, K1 buffer, DNA 0.2 µM",,ΔTm,30.5 ± 0.3 °C
O=C(O)c1ccc2c(c1)nc(Nc1ccccc1Cl)c1ncncc12,DYRK and HIPK kinases,"enzyme activity, inhibitor, eight-kinase enzymatic panel",,"1 µM, percent of control below 10",,number of kinases inhibited,2
CC(C)n1ncc2c(C(=O)NCC3(C)CNC3)cc(C3CC3)nc21,coxsackievirus A6,CPE,RD,0.05 µM,,cell protection,1.3% and 5.28%
CC(Nc1nc(N2CCCC2)nc2ccccc12)c1ccccc1 (stereo not shown),transportin-1/2,"FUS nuclear import, high content imaging",HeLa Kyoto reporter,"5 µM, 2 h",,cells with nuclear reporter,95.1%
Cl.OCCNc1nc(Nc2ccccc2)nc2ccccc12,Renilla luciferase reporter mRNA,"in vitro translation, inhibitor",Trypanosoma cruzi translation extract,40 µM,,inhibition,77.8%
CC(C)C[C@H](NC(=O)C[C@H](O)[C@H](CC(C)C)NC(=O)[C@H](Cc1c[nH]cn1)NC(=O)CNC(=O)[C@@H](NC(=O)[C@H](C)NC(=O)[C@H](Cc1c[nH]c2ccccc12)NC(=O)[C@H](CCC(N)=O)NC(=O)[C@@H](Cc1ccccc1)NC(=O)COCCOCCNC(=O)CCC(C(=O)O)N1CCN(CC(=O)O)CCN(CC(=O)O)CCN(CC(=O)O)CC1)C(C)C)C(N)=O (stereo partly shown) [lutetium-177 labelled],,,"BALB/c nu/nu mice, blood","intravenous, 250 pmol, 1 h, added: PA 300 µg",,tissue uptake,0.4 ± 0.1 %ID/g
COc1cccc(CCNc2nc3cc(C(=O)O)ccc3c3cncnc23)c1,DYRK and HIPK kinases,"enzyme activity, inhibitor, eight-kinase enzymatic panel",,"1 µM, percent of control below 10",,number of kinases inhibited,0
c1coc(-c2n[nH]cc2-c2ccnc3ccccc23)c1,KSP1 (Candida albicans),"kinase binding, MIB/MS competition",Candida albicans lysate,10 µM,reference: DMSO,log2 fold change,0.02
Fc1ccccc1Nc1nc(NCC2CCCO2)c2ccccc2n1 (stereo not shown),Renilla luciferase reporter mRNA,"in vitro translation, inhibitor",Trypanosoma cruzi translation extract,10 µM,,inhibition,8.8%
O=C(O)c1ccc2c(c1)nc(Nc1ccccc1)c1ncncc12,DYRK and HIPK kinases,"enzyme activity, inhibitor, eight-kinase enzymatic panel",,"1 µM, percent of control below 10",,number of kinases inhibited,2
Cl.Fc1ccc(Nc2nc(NCC3CCCO3)c3ccccc3n2)cc1 (stereo not shown),Renilla luciferase reporter mRNA,"in vitro translation, inhibitor",Trypanosoma cruzi translation extract,40 µM,,inhibition,81.1%
Oc1ccccc1-c1n[nH]cc1-c1ccnc2ccccc12,orf19.4518 Candida albicans,"kinase binding, MIB/MS competition",Candida albicans lysate,10 µM,reference: DMSO,log2 fold change,0.49

# Excerpt of the above:
Compound,tested on,assay,system,conditions,scale,measurement,result
Cl.OCCNc1nc(Nc2ccccc2)nc2ccccc12,Renilla luciferase reporter mRNA,"in vitro translation, inhibitor",Trypanosoma cruzi translation extract,40 µM,,inhibition,77.8%
O=C(O)c1cc(O)c2c(c1)C(=O)c1cccc(O[C@@H]3O[C@H](CO)[C@@H](O)[C@H](O)[C@H]3O)c1C2=O,HK-2 co-cultured with HepaRG,MTT,,"133.33 µM, 48 h",reference: untreated control,cell viability,47.5 ± 2.72%
CC(C)n1ncc2c(C(=O)NCC3(C)CNC3)cc(C3CC3)nc21,coxsackievirus A6,CPE,RD,0.05 µM,,cell protection,1.3% and 5.28%
